Assay results gathered from unrelated publications.

Cn1c(-c2ccc(C(N)=O)cc2F)nnc1C(C)(C)Oc1c(F)cc(Cl)cc1F — subjects with any TEAE (human; oral, 10 mg, single ascending dose): 0%
CC(=O)N(C)[C@H]1CCN(C(=O)c2cnc3c(c2)C[C@](C)(c2ccc(F)cc2)N3)C1 — subjects with serious AEs (healthy male human; oral, 60 mg once daily, multiple rising dose, added: midazolam): 0%
CNC(=O)n1ccc2cc(Oc3ccnc(NC(=O)c4ccc(C5CCN(CCO)CC5)cc4)c3)c(OCCOC)cc21 — subjects with TEAEs (healthy human; oral, 35 mg, fasted): 21.4%
CC[C@H]1[C@@H](O)[C@@H]2[C@H](CC[C@]3(C)[C@@H]([C@H](C)CCNC(=O)NS(=O)(=O)c4ccc(C(C)(C)C)cc4)CC[C@@H]23)[C@@]2(C)CC[C@@H](O)C[C@@H]12 — subjects with TEAEs (human; dose not given, drug interaction study): 21%
CCCCCCCCCCCCCCCC(=O)N[C@@H](CCC(=O)NCCCC[C@@H]1NC(=O)[C@H]([C@@H](C)CC)NC(=O)[C@@H](NC(=O)[C@@H]2CCCN2C(=O)[C@H](Cc2ccccc2)NC(=O)[C@H](Cc2c[nH]cn2)NC(=O)[C@@H](NC(=O)[C@H](CC(=O)O)NC(=O)CC(C)C)[C@@H](C)O)CSSC[C@@H](C(=O)N[C@@H](CCCCN)C(N)=O)NC(=O)CNC(=O)[C@H](CCCCN)NC(=O)[C@H](CO)NC(=O)[C@H](CCCNC(=N)N)NC(=O)[C@@H]2CCCN2C(=O)[C@H](CCC(=O)O)NC(=O)[C@H](Cc2ccccc2)NC1=O)C(=O)O — subjects with injection-site reactions (healthy human; dose not given): 28%
C[C@]1(CO)Cc2ncn(-c3ccc(C#N)c(Cl)c3)c2C(=O)O1 — subjects with severe TEAEs (human; 10 mg single dose): 0%
NCCCC[C@@H]1NC(=O)[C@@H](Cc2c[nH]c3ccccc23)NC(=O)[C@H](c2ccccc2)NC(=O)[C@@H]2C[C@@H](OC(=O)NCCN)CN2C(=O)[C@H](Cc2ccccc2)NC(=O)[C@H](Cc2ccc(OCc3ccccc3)cc2)NC1=O — subjects with abdominal distension (healthy human volunteers; 600 µg twice daily): 5%
Cc1ncc2n1-c1ccc(Cl)cc1C(c1ccccc1F)=NC2 — subjects with TEAEs (measured: investigations (SOC); humans; oral, dose not given): 0%
COc1ccc2c(c1)[C@]13CCCC[C@@H]1[C@H](C2)N(C)CC3 — subjects with TEAE (human; oral, dose not given): 17.9%
C=C(C)[C@@H]1CCC(C)=C[C@H]1c1c(O)cc(CCCCC)cc1O — subjects with AEs (human; 750 mg, trial 17075, added: fluconazole 400 mg): 19%
Cc1ncc2n1-c1ccc(Cl)cc1C(c1ccccc1F)=NC2 — subjects with treatment-related TEAE (human; oral, dose not given): 17.9%
O=c1ccc2ncc(=O)n3c2n1C[C@H]3CN1CCC(NCc2cc3c(cn2)OCCC3)CC1 — subjects with abdominal pain (healthy humans; oral, 1500 mg, added: rifampicin 600 mg): 6%

Some of these lines once more:
C[C@]1(CO)Cc2ncn(-c3ccc(C#N)c(Cl)c3)c2C(=O)O1 — subjects with severe TEAEs (human; 10 mg single dose): 0%
COc1ccc2c(c1)[C@]13CCCC[C@@H]1[C@H](C2)N(C)CC3 — subjects with TEAE (human; oral, dose not given): 17.9%
